Results of several laboratories.
Each numbered part is a random draw from the data of one study; scales do not carry over between parts.
Chain of UniProt P49137 (whole entry, looked up): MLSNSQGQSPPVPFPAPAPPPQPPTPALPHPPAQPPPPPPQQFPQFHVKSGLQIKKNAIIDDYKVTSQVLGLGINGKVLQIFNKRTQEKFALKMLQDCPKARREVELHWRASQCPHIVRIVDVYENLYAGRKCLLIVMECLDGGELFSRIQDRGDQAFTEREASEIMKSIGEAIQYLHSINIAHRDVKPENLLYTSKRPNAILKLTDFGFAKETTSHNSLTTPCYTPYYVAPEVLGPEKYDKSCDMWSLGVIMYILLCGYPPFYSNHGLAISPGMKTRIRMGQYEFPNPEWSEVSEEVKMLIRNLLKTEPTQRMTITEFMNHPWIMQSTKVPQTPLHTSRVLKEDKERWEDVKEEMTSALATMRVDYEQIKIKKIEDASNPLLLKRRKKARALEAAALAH
Chain of UniProt Q15835 (whole entry, looked up): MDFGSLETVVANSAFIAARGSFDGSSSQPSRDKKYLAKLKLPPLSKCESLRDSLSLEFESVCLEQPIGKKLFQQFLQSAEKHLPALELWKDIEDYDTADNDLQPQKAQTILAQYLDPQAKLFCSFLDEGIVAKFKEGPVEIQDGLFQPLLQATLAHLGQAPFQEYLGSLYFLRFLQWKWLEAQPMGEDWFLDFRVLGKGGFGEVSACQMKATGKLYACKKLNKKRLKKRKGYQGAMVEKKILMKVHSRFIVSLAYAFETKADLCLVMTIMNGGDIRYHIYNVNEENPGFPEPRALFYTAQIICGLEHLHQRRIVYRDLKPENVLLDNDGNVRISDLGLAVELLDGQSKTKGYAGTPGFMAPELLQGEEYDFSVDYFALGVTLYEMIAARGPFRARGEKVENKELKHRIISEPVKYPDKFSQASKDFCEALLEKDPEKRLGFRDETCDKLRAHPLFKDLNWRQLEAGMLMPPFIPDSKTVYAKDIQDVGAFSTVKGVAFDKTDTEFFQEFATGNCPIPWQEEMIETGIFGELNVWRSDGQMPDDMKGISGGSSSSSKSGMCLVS
Chain of UniProt Q8NE63 (whole entry, looked up): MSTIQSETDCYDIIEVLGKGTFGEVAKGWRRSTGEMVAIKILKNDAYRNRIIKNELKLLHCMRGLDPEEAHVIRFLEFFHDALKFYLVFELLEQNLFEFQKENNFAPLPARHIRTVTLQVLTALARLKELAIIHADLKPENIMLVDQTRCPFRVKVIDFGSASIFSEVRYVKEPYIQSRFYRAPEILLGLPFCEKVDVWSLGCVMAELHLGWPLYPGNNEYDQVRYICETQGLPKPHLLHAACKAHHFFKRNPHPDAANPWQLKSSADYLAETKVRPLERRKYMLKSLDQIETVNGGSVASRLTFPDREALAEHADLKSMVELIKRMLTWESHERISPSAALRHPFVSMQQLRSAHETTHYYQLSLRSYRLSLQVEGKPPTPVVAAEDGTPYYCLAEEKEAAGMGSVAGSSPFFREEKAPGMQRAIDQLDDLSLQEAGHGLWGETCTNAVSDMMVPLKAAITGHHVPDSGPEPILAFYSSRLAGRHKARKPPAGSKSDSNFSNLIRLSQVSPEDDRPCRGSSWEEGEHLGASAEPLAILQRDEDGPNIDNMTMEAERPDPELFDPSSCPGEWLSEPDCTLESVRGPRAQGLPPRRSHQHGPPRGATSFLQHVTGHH
Chain of UniProt O75676 (whole entry, looked up): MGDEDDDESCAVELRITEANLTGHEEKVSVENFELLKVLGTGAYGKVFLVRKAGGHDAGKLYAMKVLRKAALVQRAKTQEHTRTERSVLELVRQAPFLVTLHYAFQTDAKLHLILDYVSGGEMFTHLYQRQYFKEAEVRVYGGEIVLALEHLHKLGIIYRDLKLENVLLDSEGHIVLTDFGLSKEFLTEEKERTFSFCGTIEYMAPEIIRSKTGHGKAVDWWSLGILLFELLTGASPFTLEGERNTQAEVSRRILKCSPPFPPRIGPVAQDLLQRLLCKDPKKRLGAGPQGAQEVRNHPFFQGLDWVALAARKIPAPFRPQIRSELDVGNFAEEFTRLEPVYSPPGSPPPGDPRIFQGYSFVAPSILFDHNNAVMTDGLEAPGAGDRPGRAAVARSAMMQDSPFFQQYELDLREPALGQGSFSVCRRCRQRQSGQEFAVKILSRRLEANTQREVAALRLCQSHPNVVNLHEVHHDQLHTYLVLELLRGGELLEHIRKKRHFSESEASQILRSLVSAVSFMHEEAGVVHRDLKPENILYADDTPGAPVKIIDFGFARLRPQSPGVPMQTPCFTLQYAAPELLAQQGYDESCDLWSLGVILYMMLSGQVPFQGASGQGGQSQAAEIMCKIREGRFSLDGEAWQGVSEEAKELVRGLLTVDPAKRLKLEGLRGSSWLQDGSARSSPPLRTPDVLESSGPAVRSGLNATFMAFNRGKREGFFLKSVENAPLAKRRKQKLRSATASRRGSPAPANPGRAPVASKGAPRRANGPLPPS
Chain of UniProt Q9UQ88 (whole entry, looked up): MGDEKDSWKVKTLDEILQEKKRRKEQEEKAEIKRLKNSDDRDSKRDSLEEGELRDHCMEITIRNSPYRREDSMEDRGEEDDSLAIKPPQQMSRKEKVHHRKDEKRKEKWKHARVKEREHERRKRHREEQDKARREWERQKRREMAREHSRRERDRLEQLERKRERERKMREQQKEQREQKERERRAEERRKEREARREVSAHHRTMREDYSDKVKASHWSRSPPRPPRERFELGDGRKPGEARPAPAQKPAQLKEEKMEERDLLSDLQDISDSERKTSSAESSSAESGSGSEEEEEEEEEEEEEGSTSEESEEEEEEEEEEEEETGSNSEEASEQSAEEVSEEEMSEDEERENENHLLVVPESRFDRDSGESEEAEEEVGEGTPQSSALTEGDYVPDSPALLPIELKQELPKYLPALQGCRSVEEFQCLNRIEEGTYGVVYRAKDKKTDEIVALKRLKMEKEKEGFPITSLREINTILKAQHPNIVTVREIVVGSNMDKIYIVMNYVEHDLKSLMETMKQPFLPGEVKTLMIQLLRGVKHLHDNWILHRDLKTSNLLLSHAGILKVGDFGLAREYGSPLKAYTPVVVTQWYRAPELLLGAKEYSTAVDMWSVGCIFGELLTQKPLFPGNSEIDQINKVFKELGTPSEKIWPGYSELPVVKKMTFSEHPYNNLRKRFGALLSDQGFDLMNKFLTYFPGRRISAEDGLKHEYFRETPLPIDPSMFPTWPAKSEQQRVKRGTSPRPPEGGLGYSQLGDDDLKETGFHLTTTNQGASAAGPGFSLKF
Chain of UniProt Q16566 (whole entry, looked up): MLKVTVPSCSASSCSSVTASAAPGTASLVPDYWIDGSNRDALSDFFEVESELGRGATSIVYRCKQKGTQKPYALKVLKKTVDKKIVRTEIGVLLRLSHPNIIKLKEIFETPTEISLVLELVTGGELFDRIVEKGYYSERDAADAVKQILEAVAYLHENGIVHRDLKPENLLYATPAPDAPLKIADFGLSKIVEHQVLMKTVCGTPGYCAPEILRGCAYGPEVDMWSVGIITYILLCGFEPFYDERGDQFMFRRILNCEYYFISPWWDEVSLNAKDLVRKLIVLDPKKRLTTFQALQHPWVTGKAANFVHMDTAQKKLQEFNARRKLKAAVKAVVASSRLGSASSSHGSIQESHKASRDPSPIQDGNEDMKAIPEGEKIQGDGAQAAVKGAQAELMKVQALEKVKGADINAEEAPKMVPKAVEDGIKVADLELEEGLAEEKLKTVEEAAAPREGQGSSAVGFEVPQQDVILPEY
Chain of UniProt O43353 (whole entry, looked up): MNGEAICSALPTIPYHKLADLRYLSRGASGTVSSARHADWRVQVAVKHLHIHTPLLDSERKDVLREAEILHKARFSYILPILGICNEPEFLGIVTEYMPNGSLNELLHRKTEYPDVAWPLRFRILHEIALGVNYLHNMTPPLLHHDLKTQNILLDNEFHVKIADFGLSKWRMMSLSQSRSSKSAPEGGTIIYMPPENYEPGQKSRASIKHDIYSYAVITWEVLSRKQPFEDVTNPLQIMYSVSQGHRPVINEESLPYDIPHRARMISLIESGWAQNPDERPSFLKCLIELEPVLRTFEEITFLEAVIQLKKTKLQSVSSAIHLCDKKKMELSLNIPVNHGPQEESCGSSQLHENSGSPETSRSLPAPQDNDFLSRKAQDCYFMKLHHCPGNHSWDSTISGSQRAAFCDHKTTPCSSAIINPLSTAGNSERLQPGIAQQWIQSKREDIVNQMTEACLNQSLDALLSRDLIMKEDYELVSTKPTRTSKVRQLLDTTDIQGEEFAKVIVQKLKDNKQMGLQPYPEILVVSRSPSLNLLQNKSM
Chain of UniProt Q16288 (whole entry, looked up): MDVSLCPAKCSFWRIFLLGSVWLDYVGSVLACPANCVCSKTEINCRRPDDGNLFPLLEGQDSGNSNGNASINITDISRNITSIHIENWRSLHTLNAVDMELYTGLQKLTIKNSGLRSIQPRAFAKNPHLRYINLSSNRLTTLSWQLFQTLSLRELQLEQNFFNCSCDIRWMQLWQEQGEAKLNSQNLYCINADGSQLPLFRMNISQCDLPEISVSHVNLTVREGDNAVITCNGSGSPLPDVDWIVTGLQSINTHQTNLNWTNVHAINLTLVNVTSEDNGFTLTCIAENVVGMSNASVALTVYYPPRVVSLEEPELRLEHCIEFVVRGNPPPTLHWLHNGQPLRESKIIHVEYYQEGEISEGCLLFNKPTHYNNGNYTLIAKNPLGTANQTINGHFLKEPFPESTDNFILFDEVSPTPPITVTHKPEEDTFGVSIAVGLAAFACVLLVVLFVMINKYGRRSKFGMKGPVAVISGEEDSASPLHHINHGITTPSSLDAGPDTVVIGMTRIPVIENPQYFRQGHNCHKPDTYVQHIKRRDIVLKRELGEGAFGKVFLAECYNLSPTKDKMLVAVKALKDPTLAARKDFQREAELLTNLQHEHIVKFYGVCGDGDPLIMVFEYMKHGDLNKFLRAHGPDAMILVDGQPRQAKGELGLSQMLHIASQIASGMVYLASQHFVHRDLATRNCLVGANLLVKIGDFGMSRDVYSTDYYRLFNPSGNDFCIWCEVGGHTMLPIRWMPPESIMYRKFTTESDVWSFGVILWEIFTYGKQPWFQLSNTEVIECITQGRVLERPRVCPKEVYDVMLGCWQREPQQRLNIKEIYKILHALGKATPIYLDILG

Sample 1 — mode: inhibitor; concentration: 1 µM; quantity: inhibition
SMILES: CC#CC(=O)N1CCC[C@H]1c1nc(-c2ccc(C(=O)Nc3ccccn3)cc2)c2c(N)nccn12
CAMK4 (Homo sapiens, UniProt Q16566); enzyme activity: 0%
CDK16 (Homo sapiens, UniProt Q00536); enzyme activity: 1%
PIK3CA (Homo sapiens, UniProt P42336); enzyme activity: 2%
Tyrosine-protein kinase ABL1, phosphorylated (ABL1, Homo sapiens, UniProt P00519, E255K); enzyme activity: 10%
EGFR (Homo sapiens, UniProt P00533, L858R); enzyme activity: 1%
SIK1 (Homo sapiens, UniProt P57059); enzyme activity: 4%
Ribosomal protein S6 kinase alpha-5, C-terminal kinase domain (RPS6KA5, Homo sapiens, UniProt O75582): 0%
OXSR1 (Homo sapiens, UniProt O95747); enzyme activity: 0%
MAPKAPK2 (Homo sapiens, UniProt P49137); enzyme activity: 22%

Sample 2 — concentration: 1 µM; quantity: remaining binding
SMILES: CN1CCN(C(=O)c2ccc(NC(=O)Nc3ccc(N(C)c4ccnc(Nc5ccc(CS(C)(=O)=O)cc5)n4)cc3)cc2)CC1
PRPF4B (Homo sapiens, UniProt Q13523); competitive binding panel, refers to: PRP4; baseline: vehicle: 88%
CAMK2A (Homo sapiens, UniProt Q9UQM7); competitive binding panel; baseline: vehicle: 86%
GRK1 (Homo sapiens, UniProt Q15835); competitive binding panel; baseline: vehicle: 100%
ABL1 (Homo sapiens, UniProt P00519, F317L); competitive binding, scanMAX: 51%

Sample 3 — concentration: 0.1 µM; quantity: remaining binding
SMILES: Cn1nc(C(=O)NCc2ccc(C(=O)O)cc2)cc1-c1ccc2[nH]ccc2c1
STK10 (Homo sapiens, UniProt O94804); cell-free assay, competition with immobilised ligand: 80%
FLT1 (Homo sapiens, UniProt P17948); cell-free assay, competition with immobilised ligand: 89%
AAK1 (Homo sapiens, UniProt Q2M2I8); binding: 90%
MAP3K14 (Homo sapiens, UniProt Q99558); cell-free assay, competition with immobilised ligand: 85%
FLT3 (Homo sapiens, UniProt P36888, D835H); cell-free assay, competition with immobilised ligand: 46%
SIK3 (Homo sapiens, UniProt Q9Y2K2); cell-free assay, competition with immobilised ligand: 94%
Ribosomal protein S6 kinase alpha-4, N-terminal kinase domain (RPS6KA4, Homo sapiens, UniProt O75676); cell-free assay, competition with immobilised ligand: 73%
NEK2 (Homo sapiens, UniProt P51955); cell-free assay, competition with immobilised ligand: 95%
EGFR (Homo sapiens, UniProt P00533, del747-750/T751S); cell-free assay, competition with immobilised ligand: 74%
HIPK4 (Homo sapiens, UniProt Q8NE63); cell-free assay, competition with immobilised ligand: 100%
NTRK3 (Homo sapiens, UniProt Q16288); cell-free assay, competition with immobilised ligand: 89%
FLT3 (Homo sapiens, UniProt P36888, R834Q); cell-free assay, competition with immobilised ligand: 63%
CDK11A (Homo sapiens, UniProt Q9UQ88); binding, competition with immobilised ligand: 96%
DYRK1A (Homo sapiens, UniProt Q13627); cell-free assay, competition with immobilised ligand: 98%
VRK2 (Homo sapiens, UniProt Q86Y07); cell-free assay, competition with immobilised ligand: 91%
HUNK (Homo sapiens, UniProt P57058); cell-free assay, competition with immobilised ligand: 65%
MTOR (Homo sapiens, UniProt P42345); cell-free assay, competition with immobilised ligand: 31%
Cyclin-dependent kinase 4, with cyclin D1 (CDK4, Homo sapiens, UniProt P11802); cell-free assay, competition with immobilised ligand: 96%
TSSK3 (Homo sapiens, UniProt Q96PN8); cell-free assay, competition with immobilised ligand: 97%
CLK4 (Homo sapiens, UniProt Q9HAZ1); cell-free assay, competition with immobilised ligand: 69%
RIPK2 (Homo sapiens, UniProt O43353); cell-free assay, competition with immobilised ligand: 100%
Tyrosine-protein kinase ABL1, non-phosphorylated (ABL1, Homo sapiens, UniProt P00519, H396P); cell-free assay, competition with immobilised ligand: 71%
EPHB1 (Homo sapiens, UniProt P54762); cell-free assay, competition with immobilised ligand: 87%
CDK11B (Homo sapiens, UniProt P21127); cell-free assay, competition with immobilised ligand: 93%
CLK1 (Homo sapiens, UniProt P49759); cell-free assay, competition with immobilised ligand: 80%

Sample 4 — host: mouse; sample: microsomes or S9; concentration: 2 µM; time: 0.5 h; quantity: remaining compound
CC(C)[C@@H](C(=O)Nc1n[nH]c2cccc(F)c12)N1Cc2ccccc2C1=O: 1.64%
COC(=O)c1scc2c(NCCc3ccc(F)cc3)c(C(C)=O)c(=O)[nH]c12: 2.31%
Fc1ccc(-c2cc3nc4c(c(NCC5CCCO5)n3n2)CCCC4)cc1 (centres unmarked): 2.61%
COCC(=O)NC(c1ccccc1)c1ccccc1: 13.6%
Cn1cnc2cc(N3CC(=O)C(c4nc(-c5ccccc5)cs4)=C3N)ccc21: 70.5%
O=C(Nc1ncc(Cl)cc1Cl)c1cc2ncccn2n1: 59.9%
CN1CCN(c2nc(Nc3ccc(F)cc3)nc(Nc3ccc(F)cc3)n2)CC1: 32.9%
CCOC(=O)Cn1nc(C)c(NC(=O)Cn2nc(C)c(Br)c2C)c1C: 55.8%
Cc1ccc(N(CC(O)CN2CCCCC2)S(=O)(=O)c2ccc3ccccc3c2)cc1 (centres unmarked): 1.25%

Sample 5 — cell line: mouse MPNST tumor cells; technique: high-content nuclear imaging; refers to: cell number; concentration: 10 µM; time: 12 h; notes: mean of 2 replicates; baseline: plate mean; direction: higher = more cells; quantity: nuclei count
CCc1cccc(N(C)C(=N)Nc2cccc3ccccc23)c1: 4.81 z-score
O=C(Nc1cccc2cccnc12)c1ccc(N2C(=O)[C@@H]3[C@H](C2=O)[C@H]2C=C[C@@H]3C2)cc1: 2.21 z-score
CCCCOc1cc(C(=O)OCCN(CC)CC)ccc1N: 2.04 z-score
O=C(O)Cn1c(C(=O)Nc2nc(-c3ccccc3Cl)cs2)cc2ccccc21: 1.24 z-score
CN1[C@@H]2CC[C@H]1C[C@@H](OC(=O)C(O)c1ccccc1)C2 (mixture of isomers): 1.77 z-score
COc1cccc(OC)c1-c1cc(C(=O)NC2(C(=O)O)C3CC4CC(C3)CC2C4)nn1-c1ccnc2cc(Cl)ccc12 (centres unmarked): 1.87 z-score
